Assay results from different studies.
Several values in a cell are separate wells, animals, samples, runs or records. ± gives the spread as reported.

Structure (SMILES)	tested on	test	test system	conditions	scale	measurement	value
C[C@]12C[C@H](c3ccc(S(C)(=O)=O)cc3)C3=C4CCC(=O)C=C4CC[C@H]3[C@@H]1CC[C@@]2(O)C(F)(F)C(F)(F)F		refers to: compound (parent)	healthy human volunteers, pooled plasma	oral, 5 mg daily, day 28, 240 h		plasma concentration	0.594 ng/mL
CNCc1ccc(-c2cc(=O)c3ccc4[nH]c(C(F)(F)F)nc4c3o2)cc1			ICR mice, brain	oral, 5 mg/kg		AUC	35.8 ng·h/mL
O=C(N[C@@H](Cc1ccc(OCCCCC2CCNCC2)cc1)C(=O)O)c1nc2ccccc2o1.O=C(O)C(F)(F)F		rapid equilibrium dialysis	human plasma	time not given		mass balance recovery	94.5%
C=CC(=O)Nc1cc(Nc2nccc(-c3cn(C)c4ccccc34)n2)c(OC)cc1N(C)CCNC		storage stability	human plasma	24 h, on ice, LLOQ level		recovery	85.2%
COC1CN([C@H]2CC[C@H]([C@@]3(C)Oc4c(Cl)cc(C(=O)NCc5c(SC)cc(C)[nH]c5=O)c(C)c4O3)CC2)C1		RNA-seq, refers to: GRAMD1C	human, whole blood	dose not given, 24 h	relative to: pretreatment baseline	log2 fold change	1.89
COc1cc2ncnc(Oc3ccc(Nc4nccc5[nH]cc(-c6ccc(F)cc6)c(=O)c45)cc3F)c2cc1OC			male cynomolgus monkey, plasma	intravenous, 1.5 mg/kg		clearance	0.683 mL/min/kg
COc1cccc(OC)c1-c1cc(C(=O)NC2(C(=O)O)C3CC4CC(C3)CC2C4)nn1-c1ccc(C(=O)N(C)CCOCCN(C)C(=O)[C@H](CCCCNC(=O)[C@H](CC(C)C)NC(=O)C2OC2C(=O)O)NC(=O)CN2CCN(CC(=O)[O-])CCN(CC(=O)[O-])CCN(CC(=O)[O-])CC2)cc1C(C)C.[177Lu+3] (mixture of isomers)			mouse HT-29 xenograft	4 h, biodistribution	relative to: tumour over large intestine	tumour-to-large intestine ratio	2.92
C=C(NC(=O)c1csc(-c2nc3c(cc2O)-c2nc(cs2)C(=O)NC(C(C)O)C(=O)NC(=C(C)OC)c2nc(cs2)C(=O)NC2c4nc(cs4)C(=O)NC(COC(=O)c4c5c6c(cccc6n4O)COC(=O)C(OC4CC(C)(O)C(N(C)C)C(C)O4)C2OC5)c2nc-3cs2)n1)C(N)=O (stereo not drawn)			cynomolgus monkey, male, plasma	intravenous infusion, 1.5 mg/kg twice daily, 0 to 30 h		half-life	5.2 h
CN(O)C(=O)CCC(=O)NCCCN(CCCCN(CCCNC(=O)CCC(=O)N(C)O)C(=O)CCC(=O)N(C)O)C(=O)CCC(=O)N(C)O.[89Zr]		radio-TLC	aqueous buffer	1 d, pH 8.5, 37 °C, 89Zr-labelled complex, added: DTPA 100-fold excess		intact complex	99.7 ± 0.4%
O=c1c(O)c(-c2ccc(N(c3ccccc3)c3ccccc3)cc2)oc2cc3ccccc3cc12			DMSO	added: visible light 445-465 nm		CO yield	1.02
Cc1ncsc1-c1ccc(C(C)NC(=O)C2CC(O)CN2C(=O)C(NC(=O)CCCCCCCCCCN2CCCC(Nc3ncc(Cl)c(Nc4ccccc4S(=O)(=O)C(C)C)n3)C2)C(C)(C)C)cc1 (stereo not drawn)	22Rv1	RNA-seq, refers to: PBX3 mRNA		concentration not given	relative to: DMSO	log2 fold change	-1.21
O=C(Nc1cnccc1-c1ccc([18F])nc1)c1ccnc(NC(=O)C2CC2)c1			FVB/NJ mouse, both sexes, brain	intravenous, 25 min, added: tariquidar 15 mg/kg iv		SUV	0.16
C/C(N)=N/C(=N\S(=O)(=O)c1ccc(C(F)(F)F)cc1)N1C[C@H](c2ccccc2)C(c2ccc(Cl)cc2)=N1			male C57BL/6 mouse, kidney	intravenous, 10 mg/kg		half-life	2.7 h
COc1cccc(OC)c1-c1cc(C(=O)NC2(C(=O)O)C3CC4CC(C3)CC2C4)nn1-c1ccc(C(=O)NCCNC(=O)[C@H](CCCCNC(=O)[C@H](CC(C)C)NC(=O)C2OC2C(=O)O)NC(=O)CN2CCN(CC(=O)[O-])CCN(CC(=O)[O-])CCN(CC(=O)[O-])CC2)cc1C(C)C.[177Lu+3] (mixture of isomers)			mouse, HT-29 xenograft	4 h post injection, biodistribution	relative to: tumour over lung uptake	tumour-to-lung ratio	5.48
CCCCC/C=C\CCCO[Si](CCCCN(C)C)(OCCC/C=C\CCCCC)OCCC/C=C\CCCCC				pH 7.5, formulated		zeta potential	0.98 mV
O=C(O)CCCOc1ccc([18F])cc1-c1cc(-c2ccccc2C(F)(F)F)n(-c2ccccc2)n1			mouse, urine	intravenous, dose not given, 180 min		tissue uptake	0.25 ± 0.1 %ID/g
C=CC(=O)N1CCCC(n2c(=O)c3ncccc3n(Cc3ccc(Oc4ccccc4)cc3)c2=O)C1 (stereo not drawn)			male BALB/c mouse, plasma	intraperitoneal, 200 mg/kg, 15 min		concentration	76400 ng/mL
CCCCCCCCCCCCCCCC(=O)N[C@@H](CCCCN)C(=O)N[C@@H](CCCCN)C(=O)N[C@@H](CO)C(=O)N[C@@H](CCCNC(=N)N)C(=O)N[C@@H](C)C(=O)N[C@@H](CC(C)C)C(=O)N[C@@H](Cc1ccccc1)C(N)=O			human patients, plasma	intravenous, 0.5 mg/kg over 2 h		clearance	77 mL/min
CCn1nc(Cl)c2c1-c1cnc(N)c(c1)O[C@H](C)c1cc(F)ccc1-c1nn(C)cc1C2			Balb/c nude mouse, female, plasma	0.2 mg/kg, single dose, 1 h		free plasma concentration	1.63 nM
C=CC[C@@H]1/C=C(\C)C[C@H](C)C[C@H](OC)[C@H]2O[C@@](O)(C(=O)C(=O)N3CCCC[C@H]3C(=O)O[C@H](/C(C)=C/[C@@H]3CC[C@@H](O)[C@H](OC)C3)[C@H](C)[C@@H](O)CC1=O)[C@H](C)C[C@@H]2OC			kidney transplant recipients, CYP3A5 *1/*1 and *1/*3, whole blood	oral, dose not given, early and late phases, limited sampling		dose-normalized AUC(0-12h)	94 ng·h/mL
CC[C@H](C)[C@@H]1NC(=O)[C@H](Cc2ccc(O)cc2)NC(=O)CCCSC[C@@H](C(=O)N(CC(=O)N[C@@H](CC(C)C)C(=O)NCC(N)=O)Cc2ccc(F)cc2)NC(=O)[C@H](CC(N)=O)NC(=O)[C@H](CCC(N)=O)NC1=O			human	intranasal, 400 µg, 11 repeated doses		subjects with any TEAE	50%
CSCC[C@H](N)C(=O)N[C@@H](CO)C(=O)N[C@H](C(=O)N[C@@H](C)C(=O)NCC(=O)N[C@@H](CC(C)C)C(=O)N[C@@H](CCCCN)C(=O)N[C@@H](CCCCN)C(=O)N[C@@H](CCC(N)=O)C(=O)N[C@@H](Cc1c[nH]c2ccccc12)C(=O)N[C@@H](Cc1c[nH]cn1)C(=O)N[C@@H](CCCCN)C(=O)N[C@@H](C)C(=O)N[C@H](C(=O)N[C@@H](CCC(N)=O)C(=O)N[C@@H](CCCCN)C(=O)N[C@H](C(=O)N[C@@H](CO)C(=O)N[C@@H](CCC(=O)O)C(=O)N[C@@H](CCCCN)C(=O)N[C@H](C(=O)NCC(=O)NCC(=O)N[C@@H](C)C(N)=O)C(C)C)C(C)C)[C@@H](C)O)C(C)C			water			folding free energy	6.71 kcal/mol
O=C(NS(=O)(=O)c1cccs1)c1cc2ccccc2n1Cc1ccc(Br)c2ccccc12			KM mouse, chronic hyperuricaemia model	dose not given, day 28		body weight	38.2 g and 40.8 g and 36.2 g and 39.2 g and 37.8 g and 38 g
O=C(Nc1cnccc1-c1ccc([18F])cc1)c1ccnc(NC(=O)C2CC2)c1		ex vivo gamma counting	FVB/NJ mice, both sexes, bone	intravenous, 120 min, mean, P-gp inhibitor pretreatment, added: tariquidar 15 mg/kg iv		SUV	0.29
COc1cccc(OC)c1-c1cc(C(=O)NC2(C(=O)O)C3CC4CC(C3)CC2C4)nn1-c1ccc(C(=O)N(C)CCCN(C)C(=O)[C@H](CCCCNC(=O)[C@H](CC(C)C)NC(=O)C2OC2C(=O)O)NC(=O)CN2CCN(CC(=O)[O-])CCN(CC(=O)[O-])CCN(CC(=O)[O-])CC2)cc1C(C)C.[177Lu+3] (mixture of isomers)			mouse, HT-29 xenograft	4 h post injection, biodistribution	relative to: tumour over lung uptake	tumour-to-lung ratio	4.4
CCC(=O)N(C)c1ccc(Cl)c(Cl)c1		LC-MS/MS	mouse C57BL/6 female, plasma	oral, 10 mg/kg, 1 h		plasma concentration	61.4 ng/mL and 57.4 ng/mL
O=C1NCC(COc2nccc3c(NCc4ccccc4)cc(Cl)nc23)O1 (stereo not drawn)			C57BL/6 mouse, heart	oral, 30 mg/kg, 0.5 h	relative to: heart over plasma	tissue/plasma ratio	0.5

Excerpt of the above:
Structure (SMILES)	tested on	test	test system	conditions	scale	measurement	value
O=C(Nc1cnccc1-c1ccc([18F])cc1)c1ccnc(NC(=O)C2CC2)c1		ex vivo gamma counting	FVB/NJ mice, both sexes, bone	intravenous, 120 min, mean, P-gp inhibitor pretreatment, added: tariquidar 15 mg/kg iv		SUV	0.29
COc1cccc(OC)c1-c1cc(C(=O)NC2(C(=O)O)C3CC4CC(C3)CC2C4)nn1-c1ccc(C(=O)N(C)CCCN(C)C(=O)[C@H](CCCCNC(=O)[C@H](CC(C)C)NC(=O)C2OC2C(=O)O)NC(=O)CN2CCN(CC(=O)[O-])CCN(CC(=O)[O-])CCN(CC(=O)[O-])CC2)cc1C(C)C.[177Lu+3] (mixture of isomers)			mouse, HT-29 xenograft	4 h post injection, biodistribution	relative to: tumour over lung uptake	tumour-to-lung ratio	4.4
